Published values of several laboratories.
Numbered parts are unrelated; each lists some results of a single study. Positions count from the first letter of the parent shown.
Sequence of UniProt Q9Y385 (whole entry, looked up): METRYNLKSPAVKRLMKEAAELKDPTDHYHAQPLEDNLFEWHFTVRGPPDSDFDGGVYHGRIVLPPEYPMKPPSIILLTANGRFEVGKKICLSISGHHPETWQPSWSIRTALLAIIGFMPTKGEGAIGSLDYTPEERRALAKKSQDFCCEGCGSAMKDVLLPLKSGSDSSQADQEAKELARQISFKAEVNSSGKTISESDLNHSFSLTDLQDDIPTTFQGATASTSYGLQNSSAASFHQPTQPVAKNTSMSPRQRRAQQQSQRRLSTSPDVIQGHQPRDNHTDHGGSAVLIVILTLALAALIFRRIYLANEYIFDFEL
Sequence of UniProt Q9H832 (whole entry, looked up): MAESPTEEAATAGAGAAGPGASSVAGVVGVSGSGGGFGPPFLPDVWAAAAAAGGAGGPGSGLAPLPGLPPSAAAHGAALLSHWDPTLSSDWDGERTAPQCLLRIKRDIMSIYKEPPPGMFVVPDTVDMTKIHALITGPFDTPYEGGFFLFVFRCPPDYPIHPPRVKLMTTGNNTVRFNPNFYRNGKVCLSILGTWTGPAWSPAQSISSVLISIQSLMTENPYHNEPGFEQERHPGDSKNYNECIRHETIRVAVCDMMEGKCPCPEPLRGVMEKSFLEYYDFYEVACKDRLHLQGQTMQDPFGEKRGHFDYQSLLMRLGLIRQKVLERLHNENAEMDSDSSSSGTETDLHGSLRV
Sequence of UniProt P51668 (whole entry, looked up): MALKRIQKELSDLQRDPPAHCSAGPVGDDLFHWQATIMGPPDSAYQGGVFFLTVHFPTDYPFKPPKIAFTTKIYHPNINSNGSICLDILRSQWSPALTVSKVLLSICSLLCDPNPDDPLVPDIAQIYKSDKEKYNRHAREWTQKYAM
Sequence of UniProt Q7Z7E8 (whole entry, looked up): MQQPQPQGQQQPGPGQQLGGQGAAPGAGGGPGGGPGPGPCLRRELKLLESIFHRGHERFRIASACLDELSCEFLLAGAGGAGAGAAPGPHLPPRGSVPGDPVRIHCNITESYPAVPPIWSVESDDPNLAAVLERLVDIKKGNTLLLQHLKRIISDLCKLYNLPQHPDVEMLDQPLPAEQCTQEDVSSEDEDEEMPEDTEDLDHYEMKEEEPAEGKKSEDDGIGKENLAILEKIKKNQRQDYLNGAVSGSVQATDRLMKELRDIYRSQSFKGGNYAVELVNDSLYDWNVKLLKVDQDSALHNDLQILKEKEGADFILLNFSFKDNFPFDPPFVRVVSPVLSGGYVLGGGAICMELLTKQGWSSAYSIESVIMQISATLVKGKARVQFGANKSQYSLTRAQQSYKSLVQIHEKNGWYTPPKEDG
Sequence of UniProt P62253 (whole entry, looked up): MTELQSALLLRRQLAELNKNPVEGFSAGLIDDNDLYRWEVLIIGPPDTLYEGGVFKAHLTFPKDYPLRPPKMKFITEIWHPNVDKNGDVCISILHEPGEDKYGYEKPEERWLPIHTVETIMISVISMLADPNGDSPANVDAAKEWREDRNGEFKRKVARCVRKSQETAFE
Sequence of UniProt Q9C0C9 (whole entry, looked up): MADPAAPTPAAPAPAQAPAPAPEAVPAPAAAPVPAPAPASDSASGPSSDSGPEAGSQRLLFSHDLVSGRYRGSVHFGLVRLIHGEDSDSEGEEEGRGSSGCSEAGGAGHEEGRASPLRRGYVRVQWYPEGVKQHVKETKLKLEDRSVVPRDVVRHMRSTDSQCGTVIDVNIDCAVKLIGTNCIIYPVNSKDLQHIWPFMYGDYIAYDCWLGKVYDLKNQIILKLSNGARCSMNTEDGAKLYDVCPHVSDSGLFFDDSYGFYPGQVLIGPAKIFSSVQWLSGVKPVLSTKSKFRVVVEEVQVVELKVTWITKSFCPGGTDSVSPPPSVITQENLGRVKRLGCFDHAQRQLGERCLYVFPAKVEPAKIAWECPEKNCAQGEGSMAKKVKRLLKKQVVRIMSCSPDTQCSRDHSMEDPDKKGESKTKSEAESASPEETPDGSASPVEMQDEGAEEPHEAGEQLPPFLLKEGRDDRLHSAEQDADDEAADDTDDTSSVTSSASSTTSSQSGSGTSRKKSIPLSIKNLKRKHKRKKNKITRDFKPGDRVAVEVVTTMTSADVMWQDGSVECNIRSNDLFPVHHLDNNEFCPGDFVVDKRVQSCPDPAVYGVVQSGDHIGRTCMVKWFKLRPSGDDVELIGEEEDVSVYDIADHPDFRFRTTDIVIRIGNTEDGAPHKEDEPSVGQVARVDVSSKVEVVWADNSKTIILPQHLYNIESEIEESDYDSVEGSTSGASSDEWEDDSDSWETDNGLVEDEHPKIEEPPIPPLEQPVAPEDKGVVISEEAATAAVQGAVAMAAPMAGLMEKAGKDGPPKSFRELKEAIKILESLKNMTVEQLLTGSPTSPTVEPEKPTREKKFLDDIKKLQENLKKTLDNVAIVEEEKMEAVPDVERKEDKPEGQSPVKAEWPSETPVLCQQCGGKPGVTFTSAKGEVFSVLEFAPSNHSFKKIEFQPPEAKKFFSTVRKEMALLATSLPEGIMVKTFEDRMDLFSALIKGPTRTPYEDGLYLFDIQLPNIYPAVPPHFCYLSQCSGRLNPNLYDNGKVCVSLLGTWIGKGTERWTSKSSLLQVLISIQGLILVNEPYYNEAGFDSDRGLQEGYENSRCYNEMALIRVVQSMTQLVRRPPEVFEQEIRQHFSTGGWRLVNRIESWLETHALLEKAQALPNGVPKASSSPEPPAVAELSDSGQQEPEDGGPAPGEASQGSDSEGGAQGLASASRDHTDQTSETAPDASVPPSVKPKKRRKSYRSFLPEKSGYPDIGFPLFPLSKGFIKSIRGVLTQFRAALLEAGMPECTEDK
Sequence of UniProt Q9NPD8 (whole entry, looked up): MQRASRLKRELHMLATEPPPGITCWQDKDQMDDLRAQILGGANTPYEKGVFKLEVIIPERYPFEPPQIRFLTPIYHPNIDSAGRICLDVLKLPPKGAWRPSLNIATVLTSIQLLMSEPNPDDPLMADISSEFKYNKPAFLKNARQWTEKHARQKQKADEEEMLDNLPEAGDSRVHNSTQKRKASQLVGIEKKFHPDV
Sequence of UniProt P61081 (whole entry, looked up): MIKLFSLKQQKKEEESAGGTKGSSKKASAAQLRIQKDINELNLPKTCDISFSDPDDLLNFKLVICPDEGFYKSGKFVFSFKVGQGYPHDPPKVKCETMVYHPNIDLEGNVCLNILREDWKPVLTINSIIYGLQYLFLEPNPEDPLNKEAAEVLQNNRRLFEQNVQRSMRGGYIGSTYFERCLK
Sequence of UniProt Q712K3 (whole entry, looked up): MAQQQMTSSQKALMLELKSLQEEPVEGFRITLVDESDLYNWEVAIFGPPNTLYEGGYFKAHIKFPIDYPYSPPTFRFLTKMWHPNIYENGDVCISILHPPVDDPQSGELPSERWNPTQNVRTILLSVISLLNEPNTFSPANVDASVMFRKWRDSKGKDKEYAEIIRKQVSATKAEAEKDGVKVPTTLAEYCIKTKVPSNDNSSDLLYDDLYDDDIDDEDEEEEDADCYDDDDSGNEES
Sequence of UniProt P63146 (whole entry, looked up): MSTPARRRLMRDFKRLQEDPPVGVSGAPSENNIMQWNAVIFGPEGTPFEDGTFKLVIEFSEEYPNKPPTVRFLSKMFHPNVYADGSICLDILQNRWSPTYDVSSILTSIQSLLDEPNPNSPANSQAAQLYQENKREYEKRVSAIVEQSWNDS
Sequence of UniProt P68036 (whole entry, looked up): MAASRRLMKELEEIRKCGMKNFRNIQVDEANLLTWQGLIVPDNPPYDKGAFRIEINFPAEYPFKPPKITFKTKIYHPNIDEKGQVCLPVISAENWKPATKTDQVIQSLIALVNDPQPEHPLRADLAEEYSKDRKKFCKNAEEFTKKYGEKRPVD

Set 1 — target: CREB3L2, bZIP domain (human); technique: DHFR protein complementation; matrix: yeast; reference: wild-type JUN-FOS pair; reading: higher = stronger binding; quantity: binding fitness
Setting: single substitutions, most at no-binding floor
Starting sequence: JUN, bZIP domain (human); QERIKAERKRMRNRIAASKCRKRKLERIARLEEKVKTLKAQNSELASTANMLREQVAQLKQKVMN; partner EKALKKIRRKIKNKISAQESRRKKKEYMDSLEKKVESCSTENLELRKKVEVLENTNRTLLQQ
Variant = S47P; value = -1.49 natural log
Variant = K36T; value = -1.5 natural log
Variant = Q41T; value = -1.54 natural log
Variant = E44H; value = -1.47 natural log
Variant = V56A; value = -1.46 natural log
Variant = T37W; value = -1.47 natural log
Variant = E54C; value = -1.37 natural log
Variant = T48H; value = -1.45 natural log
Variant = S43K; value = -1.44 natural log
Variant = K36S; value = -1.46 natural log
Variant = L52Q; value = -1.64 natural log
Variant = E32K; value = -1.44 natural log
Variant = V35S; value = -1.5 natural log
Variant = A49W; value = -1.49 natural log
Variant = Q41A; value = -1.29 natural log
Variant = E44M; value = -1.52 natural log

Set 2 — Substance: RNF141 RING domain (UniProt Q8WVD5); technique: yeast two-hybrid; matrix: yeast; setting: mostly zero background; reference: not given; reading: higher = stronger interaction; quantity: lacZ reporter activity
Sequence of UniProt Q8WVD5 (whole entry, looked up): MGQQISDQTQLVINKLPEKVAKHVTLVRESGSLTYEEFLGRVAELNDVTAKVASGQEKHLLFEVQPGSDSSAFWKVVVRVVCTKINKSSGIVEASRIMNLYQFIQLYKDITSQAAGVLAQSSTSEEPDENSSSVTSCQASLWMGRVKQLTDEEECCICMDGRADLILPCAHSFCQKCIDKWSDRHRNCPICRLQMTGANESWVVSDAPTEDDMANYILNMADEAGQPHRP
target = UBE2O UBC core domain (UniProt Q9C0C9); value = 0
target = UBE2B UBC core domain (UniProt P63146); value = 0
target = UBE2Z UBC core domain (UniProt Q9H832); value = 0
target = UBE2J2 UBC core domain (UniProt Q8N2K1); value = 0
target = BIRC6 UBC core domain (UniProt Q9NR09); value = 0
target = UBE2R2 UBC core domain (UniProt Q712K3); value = 0
target = UBE2E3 UBC core domain (UniProt Q969T4); value = 0
target = UBE2L3 UBC core domain (UniProt P68036); value = 0
target = UBE2S UBC core domain (UniProt Q16763); value = 0
target = UBE2M UBC core domain (UniProt P61081); value = 0
target = UBE2J1 UBC core domain (UniProt Q9Y385); value = 0
target = UBE2Q1 UBC core domain (UniProt Q7Z7E8); value = 0
target = UBE2G1 UBC core domain (UniProt P62253); value = 0
target = UBE2D1 UBC core domain (UniProt P51668); value = 0
target = UBE2I UBC core domain (UniProt P63279); value = 0
target = UBE2C UBC core domain (UniProt O00762); value = 0
target = UBE2T UBC core domain (UniProt Q9NPD8); value = 0

Set 3 — technique: RNA Bind-n-Seq; form: RNA; matrix: in vitro; tested at: 365 nM; reference: no-protein control; reading: higher = stronger binding; quantity: RBNS enrichment (R)
Target: RNA binding protein fox-1 homolog 2, RRM domain, GST-SBP tag (RBFOX2, Homo sapiens, UniProt O43251-10, residues 100-194)
Setting: natural RNA segment, single round, ends assumed
Shared flanks, not repeated: GGGAGUUCUACAGUCCGACGAUC … UGGAAUUCUCGGGUGCCAA
Residues (chain): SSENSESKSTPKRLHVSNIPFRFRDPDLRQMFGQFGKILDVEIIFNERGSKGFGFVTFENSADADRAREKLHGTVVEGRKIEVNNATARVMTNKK
Oligonucleotide = GAUCUUAAGUAUUCUGGAAUAUACCAGAUUGGUAGAACUACCAGACUUGGGUAUUUCUCAGUUAACACACAUGCAAGGAGGAAGAGAGUUUUUUUGAACAAAAUGACUGG; value = 0.593
Oligonucleotide = UAUAGGAACAGCCCAGCACAGGUAUUUCAGGUGUGAAAGAAUCAGUAGGACCAGGCCACCGCUAGUGCUUGUGGAGAUCACAGCCCCACCCUUGUCCCUCAGCAACAUCC; value = 0.36
Oligonucleotide = GACAAUCAAAAAUACUUAGAAGAUAAAGCUCAAGAAUUGGUGCGACUGGAAGGAGAGGUUCGCUCCCUCCUUAAGGACAUAAGUGAGAAAGUUGCGGUUUACAGCACCUG; value = 0.312
Oligonucleotide = UCAAGUCAACUUGUGUGAUAAGUUCUACUGCACCUAUCUUGGGAAGCAGGGAUACCCUCUUCUUUAGGACUAGAGCUGCCAUUCUUUUCAUCUUUAGCACAAGGAAGGUA; value = 0.284
Oligonucleotide = UUACAGUGGCUCGUUGCUUCCCUCACUCUGCCCUUGUUAAUAGAAAUUCUCACAGGCCAGGCUCUGUGCGGGCUCUAGUGCCAGGUGUAGCUGGGUACAUUCCCCGUCAG; value = 0.137
Oligonucleotide = CUUUAUGCCUGGUGGCACAUUAUUCACCCGGUAACCUCCAGCUGCUUUGAUCCUGUUUCAGUCAAAGUCAGCUUCAGCCACCCCCUCCAUUCCCUAGCCAGCUCCACCCU; value = 0.648
Oligonucleotide = GGCACCCCAGUUGUGGGGGAGCCUGUAUUUUUUUUAACAACAUCCCCAUUCCCCACCUGGUCCUCCCCCUUCCCAUGCUGCCAACUUCUAACCGCAAUAGUGACUCUGUG; value = 0.599
Oligonucleotide = CUGUAUUCUCAGCACUCAGGAGACUGCUACAGCAGGAUUGAGAGAUCAGAGGCAGGCUUGUCUUUGUAGAGAAUUACAAGCCUGCUUGAGCUACAGAGUGUGAUCCUGUC; value = 0.459

Set 4 — technique: universal PBM; form: double-stranded DNA, one strand shown; matrix: in vitro; tested at: 600 nM; reading: higher = stronger binding; quantity: E-score
Target: Sal-like protein 4, full length isoform A (SALL4, Homo sapiens, UniProt Q9UJQ4, residues 1-1053)
Sequence of UniProt Q9UJQ4 (whole entry, looked up): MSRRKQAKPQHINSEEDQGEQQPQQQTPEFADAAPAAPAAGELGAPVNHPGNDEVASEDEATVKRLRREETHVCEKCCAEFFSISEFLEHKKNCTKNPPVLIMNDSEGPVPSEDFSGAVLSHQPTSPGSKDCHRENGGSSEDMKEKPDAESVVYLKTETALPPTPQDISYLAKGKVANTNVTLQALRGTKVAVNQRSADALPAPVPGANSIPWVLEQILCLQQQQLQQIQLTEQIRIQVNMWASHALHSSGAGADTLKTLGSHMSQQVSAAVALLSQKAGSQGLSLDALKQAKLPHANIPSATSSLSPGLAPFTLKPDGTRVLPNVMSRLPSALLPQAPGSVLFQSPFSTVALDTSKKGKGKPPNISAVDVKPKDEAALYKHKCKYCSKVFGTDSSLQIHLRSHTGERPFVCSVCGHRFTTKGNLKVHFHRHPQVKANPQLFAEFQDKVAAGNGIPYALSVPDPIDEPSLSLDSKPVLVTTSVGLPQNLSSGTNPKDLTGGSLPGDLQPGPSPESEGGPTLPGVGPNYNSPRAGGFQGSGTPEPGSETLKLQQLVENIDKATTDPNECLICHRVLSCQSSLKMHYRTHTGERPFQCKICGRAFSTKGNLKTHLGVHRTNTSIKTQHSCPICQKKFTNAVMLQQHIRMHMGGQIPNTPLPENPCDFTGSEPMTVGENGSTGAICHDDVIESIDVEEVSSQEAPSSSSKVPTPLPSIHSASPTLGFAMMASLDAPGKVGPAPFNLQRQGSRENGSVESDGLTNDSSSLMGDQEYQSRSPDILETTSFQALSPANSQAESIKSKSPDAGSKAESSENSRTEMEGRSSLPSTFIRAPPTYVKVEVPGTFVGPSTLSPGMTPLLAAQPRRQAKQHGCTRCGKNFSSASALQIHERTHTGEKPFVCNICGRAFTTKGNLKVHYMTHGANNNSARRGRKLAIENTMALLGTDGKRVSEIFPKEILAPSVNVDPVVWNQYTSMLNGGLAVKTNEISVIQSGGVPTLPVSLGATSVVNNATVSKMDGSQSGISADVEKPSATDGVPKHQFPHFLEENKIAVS
Setting: 8-mer, flanks averaged, mean of replicates
Oligonucleotide = CGAGTGAC; value = -0.215
Oligonucleotide = CTCATACC; value = 0.133
Oligonucleotide = CCAAAAGG; value = -0.0621
Oligonucleotide = GCCTGACC; value = -0.175
Oligonucleotide = ACCGACTG; value = -0.306
Oligonucleotide = TAGCTAAA; value = 0.103
Oligonucleotide = TAGTACAA; value = 0.127
Oligonucleotide = ACGGGTGC; value = -0.292
Oligonucleotide = ACGCCCAT; value = -0.102
Oligonucleotide = GCATATAC; value = 0.161
Oligonucleotide = CCTAACGC; value = -0.0388
Oligonucleotide = AGCTGTTG; value = 0.0733
Oligonucleotide = CATTCTAC; value = 0.0642
Oligonucleotide = CCCTGGCG; value = -0.38
Oligonucleotide = AATAAACC; value = 0.274
Oligonucleotide = GGATCCAA; value = -0.0754
Oligonucleotide = CTCTTGTA; value = 0.0289
Oligonucleotide = ACCTTCGA; value = 0.0091
Oligonucleotide = GTTGGATA; value = 0.0757
Oligonucleotide = TGAATAAA; value = 0.295
Oligonucleotide = CTCACCAA; value = 0.152
Oligonucleotide = ATCGTGAC; value = -0.0126
Oligonucleotide = AGTGGCTC; value = -0.184
Oligonucleotide = AGATGTAT; value = 0.272
Oligonucleotide = AAAAGGTT; value = -0.00156

Excerpt of the above (set 2):
target = UBE2Z UBC core domain (UniProt Q9H832); value = 0
target = UBE2J2 UBC core domain (UniProt Q8N2K1); value = 0
target = BIRC6 UBC core domain (UniProt Q9NR09); value = 0
target = UBE2R2 UBC core domain (UniProt Q712K3); value = 0
